Literature values, collected from citations in different studies.
Numbers after ± are the reported error.
Chain of UniProt P08684 (whole entry, looked up): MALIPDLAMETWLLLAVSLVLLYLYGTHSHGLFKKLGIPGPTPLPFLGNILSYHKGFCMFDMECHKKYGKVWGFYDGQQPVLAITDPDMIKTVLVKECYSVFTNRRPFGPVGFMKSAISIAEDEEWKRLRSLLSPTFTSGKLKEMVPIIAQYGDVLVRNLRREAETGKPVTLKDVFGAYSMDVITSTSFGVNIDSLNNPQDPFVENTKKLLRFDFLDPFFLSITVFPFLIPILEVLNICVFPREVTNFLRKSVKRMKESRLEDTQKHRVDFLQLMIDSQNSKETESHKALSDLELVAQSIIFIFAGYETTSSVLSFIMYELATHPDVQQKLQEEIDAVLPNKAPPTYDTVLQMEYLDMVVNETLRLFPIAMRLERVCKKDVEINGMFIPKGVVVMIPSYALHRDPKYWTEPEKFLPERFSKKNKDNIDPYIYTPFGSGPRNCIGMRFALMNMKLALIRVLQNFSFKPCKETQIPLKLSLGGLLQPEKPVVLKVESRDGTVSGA
Chain of UniProt P10635 (whole entry, looked up): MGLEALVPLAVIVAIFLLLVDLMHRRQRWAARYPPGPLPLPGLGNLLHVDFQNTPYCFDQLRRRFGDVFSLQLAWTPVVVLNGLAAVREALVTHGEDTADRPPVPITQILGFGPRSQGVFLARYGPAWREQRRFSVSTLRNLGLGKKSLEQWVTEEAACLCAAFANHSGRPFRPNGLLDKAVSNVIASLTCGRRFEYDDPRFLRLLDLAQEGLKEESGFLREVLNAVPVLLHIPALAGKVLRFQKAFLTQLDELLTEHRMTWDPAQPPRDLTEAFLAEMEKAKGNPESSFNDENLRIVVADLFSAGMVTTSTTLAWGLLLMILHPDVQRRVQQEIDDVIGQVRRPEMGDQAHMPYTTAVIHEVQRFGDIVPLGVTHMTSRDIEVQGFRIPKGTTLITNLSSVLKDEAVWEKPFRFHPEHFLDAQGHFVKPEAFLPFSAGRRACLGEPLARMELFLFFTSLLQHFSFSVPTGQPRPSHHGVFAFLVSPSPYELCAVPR

Structure (SMILES) | tested on | test | system | setting | endpoint | result
CN1CCN(c2cc(-c3ccccc3CO)c(N(C)C(=O)C(C)(C)c3cc(C(F)(F)F)cc(C(F)(F)F)c3)cn2)CC1 | – | – | cancer patients, plasma | oral, dose not given, netupitant-palonosetron fixed combination, together with: etoposide 35-100 mg/m^2 IV | AUC(0-inf) | 5290 ng·h/mL
CCC(=O)OC1=C(C(C)C)C(=O)C2=C(C1=O)[C@@]1(C)CCCC(C)(C)[C@@H]1[C@H](OC(=O)CC)[C@H]2OC(C)=O | MCF7 | cell growth | – | – | GI50 | 10 to 30 µM
CC(=O)N1CCC(NC(=O)NC23CC4CC(C)(CC(C2)c2ccccc24)C3)CC1 | Cytochrome P450 3A4 (CYP3A4, Homo sapiens, UniProt P08684) | enzyme activity, inhibitor | – | 10 µM, together with: BFC substrate | inhibition | 19 ± 3%
CC(=O)O[C@H]1C2=C(C(=O)C(OC(=O)c3ccc(C)cc3)=C(C(C)C)C2=O)[C@@]2(C)CCCC(C)(C)[C@@H]2[C@@H]1O | MEL1 | – | – | – | GI50 | 5 to 10 µM
Cc1ccccc1-c1cc(N2CC[N+](C)([O-])CC2)ncc1N(C)C(=O)C(C)(C)c1cc(C(F)(F)F)cc(C(F)(F)F)c1 | – | – | healthy volunteers, plasma | oral, 450 mg, single dose, together with: palonosetron 0.75 mg | Cmax | 219 ng/mL
CC(=O)O[C@H]1C2=C(C(=O)C(OC(=O)c3ccc([N+](=O)[O-])cc3)=C(C(C)C)C2=O)[C@@]2(C)CCCC(C)(C)[C@@H]2[C@@H]1O | MEL1 | – | – | – | GI50 | 5 to 10 µM
COCCOCCOCCOCCC(=O)NCc1cc(CNC(=O)CCOCCOCCOCCOC)cc(-c2cc3cc4nc(c(OC)c5[nH]c(cc6nc(cc2[nH]3)CC6(C)C)cc5-c2cc(CNC(=O)CCOCCOCCOCCOC)cc(CNC(=O)CCOCCOCCOCCOC)c2)CC4(C)C)c1 | – | – | DMF | room temperature | Qy absorption maximum | 729 nm
CC(=O)O[C@H]1C2=C(C(=O)C(OC(=O)c3ccc(Cl)cc3)=C(C(C)C)C2=O)[C@@]2(C)CCCC(C)(C)[C@@H]2[C@@H]1OC(=O)c1ccc(Cl)cc1 | HL-60 | cell growth | – | – | GI50 | 5 to 10 µM
COc1ccc(Nc2nccc(-c3c[nH]nc3-c3cccnc3)n2)cc1 | Cytochrome P450 2D6 (CYP2D6, Homo sapiens, UniProt P10635) | – | – | 10 µM | inhibition | 4%
CCCCc1oc2ccccc2c1C(=O)c1cc(I)c(OCCNCC)c(I)c1 | human CYP2C9 | mechanism-based inactivation | – | together with: diclofenac 4'-hydroxylation | KI | ~100 µM
O=C1c2ccccc2-c2c1c1ccc([N+](=O)[O-])cc1c(=O)n2C[C@H](O)[C@@H](O)[C@H](O)[C@H](O)CO | OVCAR-3 | cell growth | – | ovarian cancer panel | GI50 | 4.26 µM
COc1ccc(Oc2ccc([C@@H](C)N(C)c3ncc4c(N)nc(N)nc4n3)cc2)cc1 | MRC-5 | cell growth | – | – | active concentration | 5.4 µM
CCCC(=O)O[C@@H]1[C@@H](OC(C)=O)C2=C(C(=O)C(O)=C(C(C)C)C2=O)[C@@]2(C)CCCC(C)(C)[C@H]12 | MOLT-3 | – | – | – | GI50 | ≤ 5 µM
O=C1c2ccccc2-c2c1c1ccc([N+](=O)[O-])cc1c(=O)n2C[C@H](O)CO | DU-145 | cell growth | prostate cancer | – | GI50 | 0.04 µM
Cc1ccccc1-c1cc(N2CCNCC2)ncc1N(C)C(=O)C(C)(C)c1cc(C(F)(F)F)cc(C(F)(F)F)c1 | – | – | healthy volunteers, plasma | oral, 300 mg, fed, fixed-dose combination, together with: palonosetron 0.5 mg | AUC(0-inf) | 6700 ng·h/mL
Cc1[nH]nc2c1N=C(c1ccccc1Cl)c1cnc(N3CCOCC3)cc1N2 | CYP3A4 | substrate, chemical inhibition | – | – | contribution to metabolism | 37.5%

Some of these lines once more:
Structure (SMILES) | tested on | test | system | setting | endpoint | result
CC(=O)O[C@H]1C2=C(C(=O)C(OC(=O)c3ccc([N+](=O)[O-])cc3)=C(C(C)C)C2=O)[C@@]2(C)CCCC(C)(C)[C@@H]2[C@@H]1O | MEL1 | – | – | – | GI50 | 5 to 10 µM
CC(=O)O[C@H]1C2=C(C(=O)C(OC(=O)c3ccc(Cl)cc3)=C(C(C)C)C2=O)[C@@]2(C)CCCC(C)(C)[C@@H]2[C@@H]1OC(=O)c1ccc(Cl)cc1 | HL-60 | cell growth | – | – | GI50 | 5 to 10 µM
O=C1c2ccccc2-c2c1c1ccc([N+](=O)[O-])cc1c(=O)n2C[C@H](O)[C@@H](O)[C@H](O)[C@H](O)CO | OVCAR-3 | cell growth | – | ovarian cancer panel | GI50 | 4.26 µM
